Experimental data pooled from the literature.
Every numbered part comes from another study and shows a few of its results, in no order. Substitutions count along the parent as printed.

Sample 1
Target: CCND3, cyclin fold, Cln2 fusion (human)
Technique: yeast growth competition, sequencing
Medium: yeast
Notes: weak parent motif
Reference: not given
Reading: higher = stronger binding
Quantity: normalised enrichment score
Parent: GMNC docking peptide (human); KNAKRNLSSEFAN
E10R: 0.501
A3K: 0.53
N2P: 0.393
A3H: 0.54
A3S: 0.329
A12H: 0.127
S8T: -0.252
N6M: -0.295
S9A: 0.1
R5K: 0.194
S8E: -0.21
A12S: 0.0981
S9T: 0.346
A3W: 0.577
E10V: 0.227
S9C: 0.543
N6H: 0.0222
A12G: -0.33
A12R: 0.244
F11V: 0.196
A12W: 0.22
L7M: 0.0446
N2V: 0.0372
K4H: -0.0523
N6I: 0.203

Sample 2
Target: Interferon regulatory factor 5, full length, phosphomimetic (IRF5, Homo sapiens, UniProt Q13568-2, residues 1-514, K96S/S451D/S453D/S456D/S462D)
Technique: protein-binding microarray
Form: double-stranded DNA, one strand shown
Medium: in vitro
Concentration: 250 nM
Notes: 60-bp whole probe
Added: salmon DNA 0.4 mg/ml
Reference: random background probes
Reading: higher = stronger binding
Quantity: log fluorescence
Shared flanks, not repeated: GCCTAGCAC … GTCTTGATTCGCTTGACGCTGCTG
TTAGAACTGAGACTGCATTAGTGCTAG: -0.118 z-score
TTAGGACTGGACACTGGCTTAGTGCTA: -0.459 z-score
GACGGGTTCGACTTTCGGGACGTGCTA: 4.74 z-score
GACGATTTCAGTTTCGAGAGGTGCTAG: 7 z-score
TTAGGTTTCGGTATCGATTAGTGCTAG: 11 z-score
GACGATATCGGGGATCGAGACGTGCTA: 0.87 z-score
TTAGGACTGCTTAGCCTTTAGTGCTAG: -0.616 z-score
GACGGACTGGACTCTGGGGACGTGCTA: -0.522 z-score
TTAGGTATCCTACTGGTTTAGTGCTAG: 0.145 z-score
TCATTTTTTTTTTTTCTACTGTGCTAG: 1.65 z-score
GTAGGTTTCGACTTTCGGTTAGTGCTA: 10.4 z-score
TGAAGAATGCCTTTAATAAGGTGCTAG: -0.0759 z-score
AAGTGTATATACTATATGCATGTGCTA: 0.161 z-score
GACGGTTTCGGGACTGGGTACGTGCTA: 4.57 z-score
GTAGGTTTCGGTTCCGGTTAGTGCTAG: 10.6 z-score
GACGAACTGAGTTTCGAGATGTGCTAG: 5.23 z-score
TTAGGTCTGGGGTATCGGTTAGTGCTA: 2.11 z-score
TCACCTTTCACTTTAACACTGTGCTAG: 4.23 z-score
TTAGGTTTCGACTTTCGATTAGTGCTA: 10.1 z-score

Sample 3
Target: Prothrombin, mature alpha-thrombin (F2, Homo sapiens, UniProt P00734)
Technique: aptamer microarray, sandwich
Form: DNA with 2'F-ANA
Medium: in vitro
Concentration: 200 nM
Notes: whole 15-mer aptamer, many near background
Added: Cy3 exosite-II aptamer, 400 nM
Reading: higher = stronger binding
Quantity: mean fluorescence intensity
Strand: GGTTGGTGTGGTTGG
2'F-ANA at 7 8 10 13 14 15: 135 a.u.
2'F-ANA at 2 3 4 5 6 8 9 10: 55.2 a.u.
2'F-ANA at 2 3 5 6 7 8 9 11 12 14 15: 124 a.u.
2'F-ANA at 1 6 8 15: 246 a.u.
2'F-ANA at 2 3 7 8 11 12 13: 1080 a.u.
2'F-ANA at 1 2 3 6 7 8 10 13 14: 55.6 a.u.
2'F-ANA at 2 3 4 5 8 10 12: 93.9 a.u.
2'F-ANA at 1 6 9 10 11 12 15: 64 a.u.
2'F-ANA at 1 4 5 6 7 10 14 15: 62.6 a.u.
2'F-ANA at 1 5 6 8 9 10: 46 a.u.
2'F-ANA at 4 6 7 9 13: 151 a.u.
2'F-ANA at 1 2 3 4 6 8 9 10 14 15: 55.4 a.u.
2'F-ANA at 1 2 4 8 9 10 13 14 15: 50.2 a.u.
2'F-ANA at 1 2 3 4 7 8 9 10 13: 55.3 a.u.
2'F-ANA at 4 5 7 9 11 12 14: 49.8 a.u.
2'F-ANA at 4 5 6 8 9 11 14: 52.9 a.u.
2'F-ANA at 1 2 4 7 10 11 13 14 15: 48.3 a.u.
2'F-ANA at 2 4 5 8 9 10: 45.5 a.u.
2'F-ANA at 4 5 7 8 9 13 14 15: 44.2 a.u.
2'F-ANA at 2 3 4 5 7 11: 146 a.u.
2'F-ANA at 1 4 8 9 10 12 13 14 15: 49.4 a.u.

Sample 4
Target: RING finger protein unkempt homolog, zinc fingers 1-6, GST-SBP tag (UNK, Homo sapiens, UniProt Q9C0B0, residues 30-357)
Sequence of UniProt Q9C0B0 (30-357, looked up): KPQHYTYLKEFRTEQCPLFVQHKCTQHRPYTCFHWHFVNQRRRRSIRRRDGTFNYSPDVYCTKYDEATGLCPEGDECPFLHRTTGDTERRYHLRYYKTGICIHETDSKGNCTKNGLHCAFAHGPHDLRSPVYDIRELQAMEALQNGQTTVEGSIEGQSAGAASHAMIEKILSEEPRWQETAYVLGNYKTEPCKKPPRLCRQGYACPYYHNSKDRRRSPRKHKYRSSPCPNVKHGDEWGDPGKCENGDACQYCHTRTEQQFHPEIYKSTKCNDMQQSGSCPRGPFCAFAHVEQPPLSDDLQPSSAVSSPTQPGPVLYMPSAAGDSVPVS
Technique: RNA Bind-n-Seq
Form: RNA
Medium: in vitro
Concentration: not given
Notes: RNA with constant flanks, human and mouse sites, ends assumed
Reference: input RNA pool
Reading: higher = stronger binding
Quantity: bound/input enrichment
Shared flanks, not repeated: GGGAGUUCUACAGUCCGACGAUC … CAACAGAGGAUUGAGCAUCA
AACAGUGGAGAAGAGUUAGAAUCCUACAAAGGUCACUUUGGUCCCAUUCACUGUGUGAGAUUCAGUCCUGAUGGGGAACUCUAUGCCAGCGGUUCUGAAGAUGGGACAUUGAGAUUGUGG: 0.19 ratio
GAAAGUGGGAGGGCAGGGAAGGGAAAAACUAAGAGUAAACUAAAAAGAAAUGAAUUGAUCUUUUUUGAAGUGUCAGUCAGAGUGUGAGGGUUUAUGGCUACUGAGUUAGACAUCACAGUG: 0.785 ratio
GAAGGACUGUAAUCAUAAUAAGCUCACUACUUGGCUAUUGUUUUUGUUUUAAUAUUCAACUAUAGUAGUGUUUUAAAAAAAGUUAAAUGAAGAAUAAACACAAAUAUAAAAGCUCUGACU: 0.355 ratio
ACUGCAGAACAGUGGAAAAAGAAGUAUGAAAAAGAAAAAGAAAAAAAUAAGAUCCUGCGGAACACUAUUCAGUGGCUUGAAAAUGAGCUCAACAGAUGGCGUAAUGGGGAGACGGUGCCU: 0.634 ratio
UUUGUGACCAUUUAAUUAUUGUUUCAGAACUUCUGCAUGGCCUUCAGAUAAAAAUUAAGUAAAAUUUACCUUAACUCUAAAGCUACAGUAUUUUUAAGAAAUAGUAUUUUACCCUAGCAG: 8.41 ratio
GGACUAGAACACGUUACUGUUGAUGACUUGGUGGCUGAAAUCACUCCAAAAGGCAGAGCCCUGGUACCUGACAGUGUAAAGAAGGAGCUCCUACAGAGAAUAAGAACAUUCCUUGCUCAG: 0.109 ratio
AAGAAUAUUCGCUUUCCACUGAUGACACCACAGGAUCUCAUCAACUAUGUGCAGACAGUAGAUUUCAUGAGAACAGACAAUACCUGUGUGAAUUUACUUUUGGAAGCAAGCAAUUACCAA: 0.193 ratio
AGCUCCAGUUUGGCGGUUGUGGAUUUAAUUGACGCCAUCCAACCAGGCUGCAUUAACUAUGACCUUGUGAAGAGUGGGAAUCUAACAGAAGAUGACAAGCACAAUAACGCCAAGUACGCA: 0.173 ratio

For quick reference, copied from above (sample 1):
A3W: 0.577
E10V: 0.227
S9C: 0.543
N6H: 0.0222
